Experimental data of several laboratories.
± marks the error that the study gave.

SMILES | assay | test system | conditions | scale | quantity | value
CC(C)[C@H](NC(=O)[C@@H]1CCCN1C(=O)[C@H](CCCNC(=N)N)NC(=O)[C@H](CS)NC(=O)[C@H](Cc1c[nH]c2ccccc12)NC(=O)[C@H](CCCNC(=N)N)NC(=O)[C@@H](Cc1ccccc1)NC(=O)[C@H](Cc1c[nH]cn1)NC(=O)[C@H](CCC(=O)O)NC(=O)[C@H](CS)NC(=O)[C@H](CS)NC(=O)[C@H](CCCCN)NC(=O)[C@@H]1CC(=O)N[C@@H](CCCNC(=N)N)C(=O)N[C@@H](C(C)C)C(=O)N[C@@H](CC(=O)O)C(=O)N[C@H](Cc2ccc(O)cc2)C(=O)N1)C(N)=O [technetium-99m labelled] | – | C57 mouse, female, B16/F1 melanoma, lung | intravenous, 2 h, added: NDP-MSH 10 µg co-injected | – | tissue uptake | 0.83 ± 0.24 %ID/g
COc1ccc(-c2cc(=O)c3c(O)c(OC)c(OC)c(OC)c3o2)cc1OC | – | C57BL/6 mouse, male, kidney | oral, 1% w/w in diet, 6 weeks, orange peel extract diet | reference: content in orange peel | tissue to peel content ratio | 0.238%
CC(C)[C@H](NC(=O)[C@@H]1CCCN1C(=O)[C@H](CCCNC(=N)N)NC(=O)[C@H](CS)NC(=O)[C@H](Cc1c[nH]c2ccccc12)NC(=O)[C@H](CCCNC(=N)N)NC(=O)[C@@H](Cc1ccccc1)NC(=O)[C@H](Cc1c[nH]cn1)NC(=O)[C@H](CCC(=O)O)NC(=O)[C@H](CS)NC(=O)[C@H](CS)NC(=O)[C@H](CCCCN)NC(=O)[C@@H]1CC(=O)N[C@@H](CCCNC(=N)N)C(=O)N[C@@H]([C@@H](C)O)C(=O)N[C@@H](CC(=O)O)C(=O)N[C@H](Cc2ccc(O)cc2)C(=O)N1)C(N)=O [technetium-99m labelled] | – | C57 mouse, female, B16/F1 melanoma, heart | intravenous, 2 h, added: NDP-MSH 10 µg co-injected | – | tissue uptake | 0.42 ± 0.26 %ID/g
COc1ccc(-c2cc(=O)c3c(OC)c(OC)c(OC)cc3o2)cc1OC | – | C57BL/6 mouse, male, feces | oral, 1% w/w in diet, 6 weeks, orange peel extract diet | reference: content in orange peel | tissue to peel content ratio | 48.7%
COc1ccc(S(=O)(=O)Nc2nc(-c3cccc([N+](=O)[O-])c3)c(CN3CCCCC3)s2)cc1OC | – | wild-type mouse, liver | oral, 300 mg/kg, 5 h | – | tissue concentration | 5 µM
COc1ccc(OC)c(-c2oc3c(OC)c(OC)c(OC)cc3c(=O)c2OC)c1 | – | C57BL/6 mouse, male, small intestine | oral, 1% w/w in diet, 6 weeks, orange peel extract diet | reference: content in orange peel | tissue to peel content ratio | 2.54%
CC(=O)N[C@H](CCNC(=O)c1cc(NC(=O)c2cc(NC(=O)c3cc(NC(=O)c4nccn4C)cn3C)cn2C)cn1C)C(=O)Nc1cn(C)c(C(=O)Nc2cc(C(=O)Nc3cc(C(=O)Nc4cc(C(=O)NCCCN(C)CCCN[14C](=O)c5cccc([14C](=O)O)c5)n(C)c4)n(C)c3)n(C)c2)n1 | radiolabel counting | NSG male mouse, LNCaP xenograft, kidney | intraperitoneal, 20 nmol per animal, 24 h | – | tissue concentration | 0.25 mg/kg
COC(=O)C[C@](O)(CCCC(C)(C)O)C(=O)O[C@@H]1C(OC)=C[C@]23CCCN2CCc2cc4c(cc2[C@H]13)OCO4 | – | CD1 mouse, kidney | oral, 1 mg/kg, 24 h, below quantification limit 1.00 ng/mL | – | tissue concentration | not detected
CCCC[C@@H]1NC(=O)[C@@H](NC(=O)[C@H](CCC(=O)O)NC(=O)CNC(=O)CN2CCN(CC(=O)O)CCN(CC(=O)O)CCN(CC(=O)O)CC2)CCCCNC(=O)C[C@@H](C(N)=O)NC(=O)[C@H](C(C)C)NC(=O)[C@@H]2CCCN2C(=O)[C@H](CCCNC(=N)N)NC(=O)CNC(=O)[C@H](Cc2c[nH]c3ccccc23)NC(=O)[C@H](CCCNC(=N)N)NC(=O)[C@@H](Cc2ccccc2)NC(=O)[C@H](Cc2c[nH]cn2)NC(=O)[C@H](CCC(=O)O)NC1=O [indium-111 labelled] | – | C57 mouse, B16/F10 lung metastasis, lung | intravenous, 0.037 MBq, 2 h | – | tissue uptake | 2 ± 0.74 %ID/g

Repeated from above:
SMILES | assay | test system | conditions | scale | quantity | value
CCCC[C@@H]1NC(=O)[C@@H](NC(=O)[C@H](CCC(=O)O)NC(=O)CNC(=O)CN2CCN(CC(=O)O)CCN(CC(=O)O)CCN(CC(=O)O)CC2)CCCCNC(=O)C[C@@H](C(N)=O)NC(=O)[C@H](C(C)C)NC(=O)[C@@H]2CCCN2C(=O)[C@H](CCCNC(=N)N)NC(=O)CNC(=O)[C@H](Cc2c[nH]c3ccccc23)NC(=O)[C@H](CCCNC(=N)N)NC(=O)[C@@H](Cc2ccccc2)NC(=O)[C@H](Cc2c[nH]cn2)NC(=O)[C@H](CCC(=O)O)NC1=O [indium-111 labelled] | – | C57 mouse, B16/F10 lung metastasis, lung | intravenous, 0.037 MBq, 2 h | – | tissue uptake | 2 ± 0.74 %ID/g
